Measurements from different studies.
Each numbered part is a random draw from the data of one study; scales do not carry over between parts. “And” joins repeats or separate records; there may be more than shown.
Sequence of UniProt P42336 (whole entry, unmodified, looked up): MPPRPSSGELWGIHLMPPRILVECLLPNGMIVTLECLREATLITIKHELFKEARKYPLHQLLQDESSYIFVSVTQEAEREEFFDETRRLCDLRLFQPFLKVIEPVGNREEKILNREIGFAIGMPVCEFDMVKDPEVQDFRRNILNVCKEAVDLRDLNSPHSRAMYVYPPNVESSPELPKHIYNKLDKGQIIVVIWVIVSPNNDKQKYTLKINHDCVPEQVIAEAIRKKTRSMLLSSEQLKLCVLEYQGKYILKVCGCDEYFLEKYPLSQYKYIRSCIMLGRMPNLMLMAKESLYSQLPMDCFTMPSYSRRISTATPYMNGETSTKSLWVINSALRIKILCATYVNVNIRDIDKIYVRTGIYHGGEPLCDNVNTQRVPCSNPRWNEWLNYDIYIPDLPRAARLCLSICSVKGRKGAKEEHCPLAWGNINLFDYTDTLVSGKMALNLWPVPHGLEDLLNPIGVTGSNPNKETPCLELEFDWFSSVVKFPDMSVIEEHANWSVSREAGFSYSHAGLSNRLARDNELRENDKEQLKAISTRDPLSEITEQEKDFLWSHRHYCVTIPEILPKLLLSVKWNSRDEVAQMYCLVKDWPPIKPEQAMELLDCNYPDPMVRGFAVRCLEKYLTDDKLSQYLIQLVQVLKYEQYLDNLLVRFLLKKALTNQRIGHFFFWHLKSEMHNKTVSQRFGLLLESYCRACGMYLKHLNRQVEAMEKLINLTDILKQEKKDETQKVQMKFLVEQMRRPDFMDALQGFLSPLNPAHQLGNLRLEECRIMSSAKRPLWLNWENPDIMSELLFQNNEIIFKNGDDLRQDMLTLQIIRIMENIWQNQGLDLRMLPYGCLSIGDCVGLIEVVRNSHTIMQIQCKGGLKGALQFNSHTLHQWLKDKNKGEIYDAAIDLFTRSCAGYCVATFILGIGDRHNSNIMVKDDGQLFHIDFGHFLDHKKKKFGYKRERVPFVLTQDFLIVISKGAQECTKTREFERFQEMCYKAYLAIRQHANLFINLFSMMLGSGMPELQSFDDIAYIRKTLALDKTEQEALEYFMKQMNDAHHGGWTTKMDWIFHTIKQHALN
Sequence of UniProt P16234 (whole entry, looked up): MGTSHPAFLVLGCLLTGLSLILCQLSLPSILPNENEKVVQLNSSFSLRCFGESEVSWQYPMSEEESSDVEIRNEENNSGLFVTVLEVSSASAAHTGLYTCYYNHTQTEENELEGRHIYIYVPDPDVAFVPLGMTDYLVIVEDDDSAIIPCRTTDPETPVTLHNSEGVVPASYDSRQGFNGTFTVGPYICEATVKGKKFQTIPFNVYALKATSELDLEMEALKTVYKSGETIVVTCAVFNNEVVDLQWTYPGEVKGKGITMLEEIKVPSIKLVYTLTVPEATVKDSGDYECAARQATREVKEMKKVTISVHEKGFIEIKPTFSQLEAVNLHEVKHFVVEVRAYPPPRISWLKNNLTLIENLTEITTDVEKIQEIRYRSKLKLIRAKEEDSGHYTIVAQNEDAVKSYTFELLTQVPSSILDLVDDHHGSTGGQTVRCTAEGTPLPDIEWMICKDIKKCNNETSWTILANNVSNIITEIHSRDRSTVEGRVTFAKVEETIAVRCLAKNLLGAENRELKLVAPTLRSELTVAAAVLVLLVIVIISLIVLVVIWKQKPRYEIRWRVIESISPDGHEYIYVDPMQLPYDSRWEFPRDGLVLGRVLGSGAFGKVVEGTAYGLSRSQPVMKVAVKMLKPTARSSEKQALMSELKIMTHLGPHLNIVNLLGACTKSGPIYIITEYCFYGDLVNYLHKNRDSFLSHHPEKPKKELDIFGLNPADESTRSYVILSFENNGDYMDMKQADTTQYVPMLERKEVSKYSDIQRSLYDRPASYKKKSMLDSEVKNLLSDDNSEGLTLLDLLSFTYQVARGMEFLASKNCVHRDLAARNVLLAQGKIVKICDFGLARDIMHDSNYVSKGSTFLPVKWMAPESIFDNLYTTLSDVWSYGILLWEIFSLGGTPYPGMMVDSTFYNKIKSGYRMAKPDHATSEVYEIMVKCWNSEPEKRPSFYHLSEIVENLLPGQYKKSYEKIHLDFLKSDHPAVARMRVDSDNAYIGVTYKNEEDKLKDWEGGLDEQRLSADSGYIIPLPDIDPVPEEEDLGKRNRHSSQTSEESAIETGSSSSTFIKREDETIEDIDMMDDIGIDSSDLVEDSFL
Sequence of UniProt Q9UM73 (whole entry, unmodified, looked up): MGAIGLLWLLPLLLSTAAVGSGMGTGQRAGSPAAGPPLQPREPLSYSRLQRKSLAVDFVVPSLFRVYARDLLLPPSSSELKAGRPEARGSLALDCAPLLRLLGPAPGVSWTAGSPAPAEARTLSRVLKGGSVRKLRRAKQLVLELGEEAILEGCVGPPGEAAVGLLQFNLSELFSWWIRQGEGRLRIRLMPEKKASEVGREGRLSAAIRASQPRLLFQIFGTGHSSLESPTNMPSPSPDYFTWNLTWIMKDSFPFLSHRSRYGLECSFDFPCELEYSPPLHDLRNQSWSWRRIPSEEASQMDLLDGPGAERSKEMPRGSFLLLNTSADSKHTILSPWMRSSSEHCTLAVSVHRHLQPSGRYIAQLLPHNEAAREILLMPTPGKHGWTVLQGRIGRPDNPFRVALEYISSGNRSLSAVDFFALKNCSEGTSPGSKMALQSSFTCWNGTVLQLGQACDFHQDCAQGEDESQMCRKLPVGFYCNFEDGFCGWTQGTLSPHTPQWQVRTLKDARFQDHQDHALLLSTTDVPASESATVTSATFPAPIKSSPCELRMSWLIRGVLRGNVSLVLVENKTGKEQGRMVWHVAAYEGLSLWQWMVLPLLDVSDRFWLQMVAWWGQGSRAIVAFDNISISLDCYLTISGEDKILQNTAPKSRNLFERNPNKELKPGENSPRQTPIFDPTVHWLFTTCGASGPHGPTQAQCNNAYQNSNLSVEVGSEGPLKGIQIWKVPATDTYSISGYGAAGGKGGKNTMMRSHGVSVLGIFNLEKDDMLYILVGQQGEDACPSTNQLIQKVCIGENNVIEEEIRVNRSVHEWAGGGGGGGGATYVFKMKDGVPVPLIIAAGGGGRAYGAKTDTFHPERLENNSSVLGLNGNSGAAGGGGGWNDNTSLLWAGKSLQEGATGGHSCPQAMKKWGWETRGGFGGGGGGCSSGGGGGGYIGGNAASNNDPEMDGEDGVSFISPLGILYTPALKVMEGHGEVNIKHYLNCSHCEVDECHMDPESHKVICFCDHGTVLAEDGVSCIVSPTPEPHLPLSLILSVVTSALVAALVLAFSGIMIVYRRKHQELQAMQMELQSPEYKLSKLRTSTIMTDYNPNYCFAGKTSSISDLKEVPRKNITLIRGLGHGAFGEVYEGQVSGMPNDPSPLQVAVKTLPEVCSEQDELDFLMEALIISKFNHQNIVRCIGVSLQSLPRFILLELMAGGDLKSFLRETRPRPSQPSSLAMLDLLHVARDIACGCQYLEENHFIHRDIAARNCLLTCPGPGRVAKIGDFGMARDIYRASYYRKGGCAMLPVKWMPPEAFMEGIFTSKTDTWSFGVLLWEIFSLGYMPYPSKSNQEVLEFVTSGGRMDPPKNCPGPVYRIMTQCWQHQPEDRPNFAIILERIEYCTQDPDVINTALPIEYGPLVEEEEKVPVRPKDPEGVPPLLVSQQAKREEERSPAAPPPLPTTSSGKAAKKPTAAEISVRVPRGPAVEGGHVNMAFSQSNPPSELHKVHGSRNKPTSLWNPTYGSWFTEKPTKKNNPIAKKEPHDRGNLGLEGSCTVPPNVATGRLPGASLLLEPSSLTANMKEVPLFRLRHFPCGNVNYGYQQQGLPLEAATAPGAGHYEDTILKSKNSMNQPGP
Sequence of UniProt P78362 (whole entry, looked up): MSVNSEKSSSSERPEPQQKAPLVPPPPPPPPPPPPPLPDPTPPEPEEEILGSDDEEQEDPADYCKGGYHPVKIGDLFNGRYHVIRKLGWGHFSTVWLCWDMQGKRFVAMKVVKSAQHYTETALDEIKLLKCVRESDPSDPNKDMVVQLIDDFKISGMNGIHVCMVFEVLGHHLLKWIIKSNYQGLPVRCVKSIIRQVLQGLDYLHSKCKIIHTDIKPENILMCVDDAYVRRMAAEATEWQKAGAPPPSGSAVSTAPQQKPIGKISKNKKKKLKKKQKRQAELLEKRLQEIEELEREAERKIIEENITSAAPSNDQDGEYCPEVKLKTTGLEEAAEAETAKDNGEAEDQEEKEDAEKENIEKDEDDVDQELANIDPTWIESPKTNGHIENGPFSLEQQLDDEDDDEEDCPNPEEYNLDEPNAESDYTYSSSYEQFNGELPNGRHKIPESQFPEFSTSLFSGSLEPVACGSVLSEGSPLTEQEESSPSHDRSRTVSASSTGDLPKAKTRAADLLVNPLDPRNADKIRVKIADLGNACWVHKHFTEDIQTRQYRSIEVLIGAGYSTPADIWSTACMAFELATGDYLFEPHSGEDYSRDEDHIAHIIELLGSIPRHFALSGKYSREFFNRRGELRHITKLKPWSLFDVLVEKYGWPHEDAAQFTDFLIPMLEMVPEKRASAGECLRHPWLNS

Sample 1
Structure (SMILES): CNC(=O)c1ccc(-c2cnn3ccc(C(=O)N(C)c4ccc(Cl)c(C(=O)OC)c4)cc23)cc1
Organism: Cryptosporidium parvum
Technique: time-kill
Strain: nanoluciferase-expressing
Relative to: DMSO
setting | luminescence
81 nM, 72 h | 12.3% and 10.6%
27 nM, 4 h | 122% and 97.5%
81 nM, 48 h | 11.8% and 10.3%
9 nM, 0 h | 91.4% and 98% and 90.3% and 103% and 99.4% and 97.4% and 90.1% and 91.2%
27 nM, 24 h | 32.2% and 30.1%
27 nM, 72 h | 14.4% and 9.22%
3 nM, 24 h | 86.5% and 110%
81 nM, 8 h | 89.6% and 83.1%

Sample 2
Structure (SMILES): Cn1cncc1[C@@](O)(COc1ccc(C#N)cc1-c1ccc(OC(F)(F)F)cc1)c1ccc(C#N)cc1
Technique: competition with immobilised ligand
Concentration: 1 µM
target | assay | remaining binding [%]
ALK (Homo sapiens, UniProt Q9UM73) | cell-free assay | 70
ALK (Homo sapiens, UniProt Q9UM73, L1196M) | cell-free assay | 100
CDKL5 (Homo sapiens, UniProt O76039) | binding | 93
SRPK2 (Homo sapiens, UniProt P78362) | cell-free assay | 55
PDGFRA (Homo sapiens, UniProt P16234) | cell-free assay | 100
Ribosomal protein S6 kinase alpha-6, N-terminal kinase domain (RPS6KA6, Homo sapiens, UniProt Q9UK32) | cell-free assay | 94
DCLK1 (Homo sapiens, UniProt O15075) | cell-free assay | 87
MAK (Homo sapiens, UniProt P20794) | binding | 99
STK17A (Homo sapiens, UniProt Q9UEE5) | cell-free assay | 100
PIK3CA (Homo sapiens, UniProt P42336, H1047Y) | cell-free assay | 100
EPHB6 (Homo sapiens, UniProt O15197) | cell-free assay | 100
PIK3CA (Homo sapiens, UniProt P42336, E545K) | cell-free assay | 80
FLT3 (Homo sapiens, UniProt P36888, F691L/ITD) | cell-free assay | 100
CAMK1D (Homo sapiens, UniProt Q8IU85) | cell-free assay | 100
ERBB3 (Homo sapiens, UniProt P21860) | cell-free assay | 89
MAP3K14 (Homo sapiens, UniProt Q99558) | cell-free assay | 92
EGFR (Homo sapiens, UniProt P00533, G719C) | cell-free assay | 66
MAP2K7 (Homo sapiens, UniProt O14733) | cell-free assay | 96
PTK2 (Homo sapiens, UniProt Q05397) | cell-free assay | 97
KIT (Homo sapiens, UniProt P10721, L576P) | cell-free assay | 95
RIPK1 (Homo sapiens, UniProt Q13546) | cell-free assay | 90
RAF1 (Homo sapiens, UniProt P04049) | cell-free assay | 85
LIM domain kinase 1 (LIMK1, Homo sapiens, UniProt P53667) | cell-free assay | 100
FGR (Homo sapiens, UniProt P09769) | cell-free assay | 100
FGFR2 (Homo sapiens, UniProt P21802) | cell-free assay | 100

Sample 3
Target: Calcium/calmodulin-dependent protein kinase type II subunit alpha (CAMK2A, Homo sapiens, UniProt Q9UQM7)
Sequence of UniProt Q9UQM7 (whole entry, looked up): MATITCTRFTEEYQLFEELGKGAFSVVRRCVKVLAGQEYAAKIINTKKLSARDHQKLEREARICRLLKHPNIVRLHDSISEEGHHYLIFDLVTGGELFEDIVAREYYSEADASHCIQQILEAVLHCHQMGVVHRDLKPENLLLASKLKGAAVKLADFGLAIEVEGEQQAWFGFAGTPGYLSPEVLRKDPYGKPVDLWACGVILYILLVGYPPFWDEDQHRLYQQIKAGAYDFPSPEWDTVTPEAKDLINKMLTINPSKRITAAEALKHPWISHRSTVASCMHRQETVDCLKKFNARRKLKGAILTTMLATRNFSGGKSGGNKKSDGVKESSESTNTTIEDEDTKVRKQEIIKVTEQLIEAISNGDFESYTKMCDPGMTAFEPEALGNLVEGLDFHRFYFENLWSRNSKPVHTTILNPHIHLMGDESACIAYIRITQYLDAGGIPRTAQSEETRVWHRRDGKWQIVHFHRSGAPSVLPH
Observed: enzyme activity
Action: inhibitor
Concentration: 10 µM
SMILES | inhibition [%]
Cc1ccccc1-n1c(CF)nc2ccc(N)cc2c1=O | -9
O=C(O)CNC(=O)c1cccnc1 | -5
COc1cc2c3c(c1OC)-c1ccccc1C[C@H]3NCC2 | -7
COc1cc(OC)c(OC)cc1C=O | -23

Sample 4
Cell line: HaCaT
Concentration: 100 µM
Time: 18 h
SMILES | viability [%]
C=CC[C@]1(O)CC[C@H]2[C@@H]3CCC4=CCCC[C@@H]4[C@H]3CC[C@@]21C | 17.8
CC[C@]12C=CCN3CC[C@]4(C(=C(C(=O)OC)C1)Nc1ccccc14)[C@@H]32 | 56.8
C=C1CC[C@@]2(O)[C@H]3Cc4ccc(O)c5c4[C@@]2(CCN3CC2CC2)[C@H]1O5 | 112
CCOC(=O)c1cncn1[C@H](C)c1ccccc1 | 113
N#Cc1ccccc1-c1cc(-c2ccccn2)cn(-c2ccccc2)c1=O | 82

Sample 5
Cell line: mouse MPNST tumor cells
Technique: high-content immunofluorescence imaging
Measured: nuclear SOX9
Concentration: 10 µM
Time: 12 h
Setting: mean of 2 replicates
Relative to: DMSO control
Reading: higher = more nuclear SOX9
Compound | nuclear SOX9 intensity
Cc1cccc(NC(=O)N[C@@H]2N=C(c3ccccc3)c3ccccc3N(CC(=O)c3ccccc3C)C2=O)c1 | 124 % of DMSO
NCC(CC(=O)O)c1ccc(Cl)cc1 (stereo not drawn) | 101 % of DMSO
Cc1sc2c(c1C)C(c1ccc(Cl)cc1)=N[C@@H](CC(=O)OC(C)(C)C)c1nnc(C)n1-2 | 127 % of DMSO
CC(=O)NC1CCSC1=O (racemic) | 74 % of DMSO

Sample 6
SMILES: CCn1cnc2c(Nc3cccc(Cl)c3)nc(N[C@H]3CCCC[C@H]3N)nc21
Observed: enzyme activity
Action: inhibitor
Concentration: 0.5 µM
Relative to: control
target | remaining activity
PDGFRA (Homo sapiens, UniProt P16234) | 100%
Cyclin-dependent kinase 6, with cyclin D1 (CDK6, Homo sapiens, UniProt Q00534) | 60.9%
SYK (Homo sapiens, UniProt P43405) | 98.4%
STK4 (Homo sapiens, UniProt Q13043) | 91.3%
CAMK2A (Homo sapiens, UniProt Q9UQM7) | 96.5%

A few entries again (sample 2):
target | assay | remaining binding [%]
EPHB6 (Homo sapiens, UniProt O15197) | cell-free assay | 100
PDGFRA (Homo sapiens, UniProt P16234) | cell-free assay | 100
ERBB3 (Homo sapiens, UniProt P21860) | cell-free assay | 89
DCLK1 (Homo sapiens, UniProt O15075) | cell-free assay | 87
CAMK1D (Homo sapiens, UniProt Q8IU85) | cell-free assay | 100
